Published values from different studies.
Numbers after ± are the reported error.

SMILES	test	test system	setting	how to read	quantity	value
CCN(CC)CCOc1ccc(-c2nnn(Cc3ccc(OC)cc3)c2N)cc1	–	Sprague-Dawley rat	oral, up to 100 mg/kg	–	central nervous system function	no effect
CC(C)C[C@@H](NC(=O)[C@@H](CCCNC(=N)N)NC(=O)[C@@H](Cc1c[nH]cn1)NC(=O)[C@@H](Cc1c[nH]c2ccccc12)NC(=O)[C@@H](Cc1c[nH]cn1)NC(=O)[C@@H](Cc1ccccc1)NC(=O)[C@H](NC(=O)[C@@H](Cc1ccc(O)cc1)NC(=O)CNC(=O)CNC(=O)CCOCCOCCOCCNC(=O)CN1CCN(CC(=O)O)CCN(CC(=O)O)CC1)[C@H](C)O)C(=O)N[C@H](CC(N)=O)C(=O)N1CCC[C@@H]1C(=O)O [gallium-68 labelled]	OLINDA/EXM	adult female human, ULI wall	extrapolated from C57BL/6 mice	–	organ absorbed dose	0.014 ± 0.000451 mSv/MBq
CC(=O)NCCCC[C@@H]1NC(=O)[C@H](Cc2c[nH]c3c(C)cccc23)NC(=O)[C@H]([C@@H](C)O)NC(=O)[C@H](CC(N)=O)NC(=O)[C@@H](NC(C)=O)C(C)(C)SSC(C)(C)[C@@H](C(=O)N[C@@H](Cc2ccc(OCCN)cc2)C(=O)N[C@@H](Cc2ccc3ccccc3c2)C(=O)NC2(C(=O)N[C@@H](CCC(=O)O)C(=O)N[C@@H](CC(N)=O)C(=O)N[C@@H](Cc3cccnc3)C(=O)N(C)CC(N)=O)CCOCC2)NC1=O	–	human, plasma	oral, 100 mg, single dose, healthy volunteers	–	CL/F	5230 L/h
CCCCC[C@@H]1OC(=O)[C@@H](C)N(C)C(=O)[C@H](CCCCC)N(C)C(=O)[C@@H](C)N(C)C(=O)[C@H](CCCCC)N(C)C(=O)[C@@H](C)N(C)C(=O)[C@H](CCCCC)OC(=O)[C@@H](C)N(C)C1=O	PAMPA, HPLC-UV	–	500 µM, pH 7.4	–	log Papp	-5.37 ± 0.04
CCCCCCCCCCCCCCCC(=O)N[C@@H](CCC(=O)NCCOCCOCCC(=O)NCCOCCOCCC(=O)NCCCC[C@H](NC(=O)[C@H](CC(=O)O)NC(=O)[C@H](CC(C)C)NC(=O)[C@H](Cc1ccc(O)cc1)NC(=O)[C@H](CCCCN)NC(=O)[C@H](CO)NC(=O)[C@H](Cc1ccc(O)cc1)NC(=O)[C@H](CC(=O)O)NC(=O)[C@H](CO)NC(=O)[C@@H](NC(=O)[C@H](Cc1ccccc1)NC(=O)[C@@H](NC(=O)CNC(=O)[C@H](CCC(N)=O)NC(=O)[C@@H](CO)NC(=O)[C@@H](N)Cc1c[nH]cn1)[C@@H](C)O)[C@@H](C)O)C(=O)N[C@@H](CCCNC(=N)N)C(=O)N[C@@H](CCCNC(=N)N)C(=O)N[C@@H](C)C(=O)N[C@@H](CCC(N)=O)C(=O)N[C@@H](CC(=O)O)C(=O)N[C@@H](Cc1ccccc1)C(=O)N[C@H](C(=O)N[C@@H](CCC(N)=O)C(=O)N[C@@H](Cc1c[nH]c2ccccc12)C(=O)N[C@@H](CC(C)C)C(=O)N[C@@H](CC(C)C)C(=O)N[C@@H](CC(N)=O)C(=O)N[C@H](C(=O)NCC(=O)NCC(=O)N1CCC[C@H]1C(=O)N[C@@H](CO)C(=O)N[C@@H](CO)C(=O)NCC(=O)N[C@@H](C)C(=O)N1CCC[C@H]1C(=O)N1CCC[C@H]1C(=O)N1CCC[C@H]1C(=O)N[C@@H](CO)C(N)=O)[C@@H](C)O)C(C)C)C(=O)O	–	rhesus monkey, both sexes, plasma	subcutaneous, 20 µg/kg, multiple doses, day 1	–	half-life	3.07 ± 1.28 h
CC(CCC(=O)NCC(=O)O)C1CCC2C3C(O)CC4CC(OC5OC(C(=O)O)C(O)C(O)C5O)CCC4(C)C3CCC12C (centres unmarked)	–	women, T/T genotype, plasma	dose not given, geometric mean	–	plasma concentration	18.3 ng/mL
O=C1NC2(CC2)COc2ncc(F)cc2[C@H]2COCCN2c2ccn3ncc1c3n2	–	Sprague-Dawley rat, male, thymus	oral, 5 mg/kg/day, 4 weeks dosing, end of recovery	–	organ-to-body weight ratio	0.092 ± 0.021%
CN1Cc2cc(Cl)ccc2-n2c(nnc2C2CCN(c3cccc([18F])n3)CC2)C1	–	C57BL/6 mouse male, lung	intravenous, dose not given, 5 min, together with: blocking agent 10 mg/kg	–	tissue uptake	7.2 ± 3.35 %ID/g
CC(C)[C@@H]1NC(=O)CNC(=O)[C@H](CC(N)=O)NC(=O)[C@H](CCCNC(=N)N)NC(=O)[C@H](Cc2ccc(O)cc2)NC(=O)[C@H](C(C)C)NC(=O)[C@@H](NC(=O)[C@@H](NC(=O)[C@H](CC(N)=O)NC(=O)[C@H](Cc2c[nH]c3ccccc23)NC(=O)[C@H](C)NC(=O)[C@H](Cc2ccccc2)NC(=O)CNC(=O)[C@H](CCCCN)NC(=O)[C@H](Cc2ccccc2)NC(=O)[C@H](Cc2ccccc2)NC(=O)[C@H](CCCCN)NC(=O)OCC2c3ccccc3-c3ccccc32)C(C)C)CSSC[C@@H](C(=O)N[C@@H](Cc2c[nH]cn2)C(=O)N[C@@H](CCCNC(=N)N)C(=O)N[C@@H](CCCNC(=N)N)C(=O)N[C@@H](C)C(=O)N[C@@H](CC(N)=O)C(N)=O)NC(=O)[C@H](C(C)C)NC(=O)[C@H](CCCNC(=N)N)NC1=O	–	ICR mouse, blood	intramammary, 10 mg/kg, day 5, 3 d dosing	–	haematocrit	40.1 ± 1.25%
O=C(O)CC[C@H](NC(=O)[C@H](CCC(=O)O)NC(=O)[C@H](CCC(=O)O)NC(=O)[C@H](CCC(=O)O)NC(=O)[C@H](CCC(=O)O)NC(=O)CNC(=O)[C@H](CCC(=O)O)NC(=O)CNC(=O)[C@H](CCC(=O)O)NC(=O)[C@@H](Cc1ccccc1)NC(=O)[C@@H](Cc1ccccc1)NC(=O)Cc1ccc2ccccc2c1)C(=O)O	circular dichroism	PBS	500 µM, pH 9, above CMC, second peak	–	CD negative peak wavelength	212 nm
CC[C@H](C)[C@H](NC(=O)[C@H](CCCCN)NC(=O)CNC(=O)[C@H](CC(C)C)NC(=O)[C@H](Cc1ccccc1)NC(=O)[C@H](CCCCN)NC(=O)[C@H](CO)NC(=O)[C@H](Cc1ccccc1)NC(=O)[C@H](Cc1c[nH]c2ccccc12)NC(=O)[C@H](CCC(N)=O)NC(=O)[C@@H](NC(=O)[C@H](Cc1ccccc1)NC(=O)CCCCCNC(=O)CN1CCN(CC(=O)O)CCN(CC(=O)O)CCN(CC(=O)O)CC1)C(C)C)C(=O)N[C@@H](CCC(=O)O)C(=O)N1CCC[C@H]1C(=O)N[C@@H](CC(=O)O)C(=O)N[C@H](C(=O)N[C@@H](CO)C(=O)N[C@@H](CCC(N)=O)C(=O)N[C@H](C(=O)N[C@@H](CCC(N)=O)C(=O)N[C@@H](CC(=O)O)C(=O)N1CCC[C@H]1C(=O)N[C@@H](CC(N)=O)C(=O)N[C@@H](CC(=O)O)C(=O)N[C@@H](CCC(N)=O)C(=O)N[C@@H](Cc1ccc(O)cc1)C(=O)N[C@@H](CCC(=O)O)C(=O)N1CCC[C@H]1C(=O)N[C@@H](Cc1ccccc1)C(=O)O)C(C)C)C(C)C [copper-64 labelled]	–	C57BL/6 mice, male, tumour-free, liver	1 h	–	tissue uptake	20.4 ± 2.2 %ID/g
COCC12CCC(OC)C34C5CC6(O)C(OC)C(O)C(O)(C5C6OC(=O)c5ccccc5)C(C(OC)C13)C4N(C)C2 (centres unmarked)	–	Sprague-Dawley rat, plasma	oral, dose not given, with H in PCW extract	–	MRT(0-t)	7.8 ± 3.73 h
CSCC[C@H](N)C(=O)N[C@@H](C)C(=O)N[C@@H](CCCNC(=N)N)C(=O)N[C@@H](CCCNC(=N)N)C(=O)N[C@@H](CC(=O)O)C(=O)N[C@@H](CCCCN)C(=O)N[C@H](C(=O)N[C@@H](CC(=O)O)C(=O)N[C@@H](Cc1ccccc1)C(=O)N[C@@H](C)C(=O)N[C@@H](CCCNC(=N)N)C(=O)N[C@@H](CCCNC(=N)N)C(=O)N[C@@H](CCCNC(=N)N)C(=O)N[C@@H](CCCNC(=N)N)C(=O)NCCCCCC(=O)NCCCCC(NC(=O)CCCCCNC(=O)[C@H](CCCNC(=N)N)NC(=O)[C@H](CCCNC(=N)N)NC(=O)[C@H](CCCNC(=N)N)NC(=O)[C@H](CCCNC(=N)N)NC(=O)[C@H](C)NC(=O)[C@H](Cc1ccccc1)NC(=O)[C@H](CC(=O)O)NC(=O)[C@@H](NC(=O)[C@H](CCCCN)NC(=O)[C@H](CC(=O)O)NC(=O)[C@H](CCCNC(=N)N)NC(=O)[C@H](CCCNC(=N)N)NC(=O)[C@H](C)NC(=O)[C@@H](N)CCSC)[C@@H](C)O)C(=O)NCCCCC(NC(=O)C(CCCCNC(=O)CCCCCNC(=O)[C@H](CCCNC(=N)N)NC(=O)[C@H](CCCNC(=N)N)NC(=O)[C@H](CCCNC(=N)N)NC(=O)[C@H](CCCNC(=N)N)NC(=O)[C@H](C)NC(=O)[C@H](Cc1ccccc1)NC(=O)[C@H](CC(=O)O)NC(=O)[C@@H](NC(=O)[C@H](CCCCN)NC(=O)[C@H](CC(=O)O)NC(=O)[C@H](CCCNC(=N)N)NC(=O)[C@H](CCCNC(=N)N)NC(=O)[C@H](C)NC(=O)[C@@H](N)CCSC)[C@@H](C)O)NC(=O)CCCCCNC(=O)[C@H](CCCNC(=N)N)NC(=O)[C@H](CCCNC(=N)N)NC(=O)[C@H](CCCNC(=N)N)NC(=O)[C@H](CCCNC(=N)N)NC(=O)[C@H](C)NC(=O)[C@H](Cc1ccccc1)NC(=O)[C@H](CC(=O)O)NC(=O)[C@@H](NC(=O)[C@H](CCCCN)NC(=O)[C@H](CC(=O)O)NC(=O)[C@H](CCCNC(=N)N)NC(=O)[C@H](CCCNC(=N)N)NC(=O)[C@H](C)NC(=O)[C@@H](N)CCSC)[C@@H](C)O)C(N)=O)[C@@H](C)O (some centres unmarked)	–	C57BL/6 mouse female, colon	dose not given, 3 h	baseline: total	mean tissue distribution	1.79%
CCCC[C@H]1C(=O)N(C)[C@@H](CCCC)C(=O)N[C@@H](CCCNC(=O)CN2CCN(CC(=O)O)CCN(CC(=O)O)CCN(CC(=O)O)CC2)C(=O)N[C@H](C(=O)NCC(N)=O)CSCC(=O)N[C@@H](Cc2ccc(O)cc2)C(=O)N(C)[C@@H](C)C(=O)N[C@@H](CC(N)=O)C(=O)N2CCC[C@H]2C(=O)N[C@@H](Cc2c[nH]cn2)C(=O)N[C@@H](CC(C)C)C(=O)N(C)CC(=O)N[C@@H](Cc2c[nH]c3ccccc23)C(=O)N[C@@H](CO)C(=O)N[C@@H](Cc2c[nH]c3ccccc23)C(=O)N1C [gallium-68 labelled]	–	NOD/SCID mice with CHO-hPD-L1 xenograft, muscle	60 min post injection	–	tissue uptake	2 ± 0.53 %ID/g
C#Cc1c(F)ccc2cc(O)cc(-c3ncc4c(N5CC6CCC(C5)N6C(=O)OC(C)OC(=O)C(C)CC)nc(OC[C@@]56CCCN5C[C@H](F)C6)nc4c3F)c12 (some centres unmarked)	item: prodrug	mouse whole blood	1 µM	–	t1/2	0.33 h
C/C(=N\OCCCN1CCCCC1)c1ccc(C(F)(F)F)cc1	–	mouse, plasma	oral, 100 mg/kg twice daily, day 1	–	AUC(0-t)	8720 ± 245 ng·h/mL
O=C(CN1CCN(CC(=O)NCP(=O)([O-])[O-])CCN(CC(=O)NCP(=O)([O-])[O-])CCN(CC(=O)NCP(=O)([O-])[O-])CC1)NCP(=O)([O-])[O-].[Gd+3]	–	Sprague-Dawley rats, blood	intravenous, 35 µmol/kg, two-compartment model, together with: GdDTPA 68 µmol/kg co-injected	–	volume of distribution	0.248 L/kg

Repeated from above:
SMILES	test	test system	setting	how to read	quantity	value
CC(C)[C@@H]1NC(=O)CNC(=O)[C@H](CC(N)=O)NC(=O)[C@H](CCCNC(=N)N)NC(=O)[C@H](Cc2ccc(O)cc2)NC(=O)[C@H](C(C)C)NC(=O)[C@@H](NC(=O)[C@@H](NC(=O)[C@H](CC(N)=O)NC(=O)[C@H](Cc2c[nH]c3ccccc23)NC(=O)[C@H](C)NC(=O)[C@H](Cc2ccccc2)NC(=O)CNC(=O)[C@H](CCCCN)NC(=O)[C@H](Cc2ccccc2)NC(=O)[C@H](Cc2ccccc2)NC(=O)[C@H](CCCCN)NC(=O)OCC2c3ccccc3-c3ccccc32)C(C)C)CSSC[C@@H](C(=O)N[C@@H](Cc2c[nH]cn2)C(=O)N[C@@H](CCCNC(=N)N)C(=O)N[C@@H](CCCNC(=N)N)C(=O)N[C@@H](C)C(=O)N[C@@H](CC(N)=O)C(N)=O)NC(=O)[C@H](C(C)C)NC(=O)[C@H](CCCNC(=N)N)NC1=O	–	ICR mouse, blood	intramammary, 10 mg/kg, day 5, 3 d dosing	–	haematocrit	40.1 ± 1.25%
O=C(O)CC[C@H](NC(=O)[C@H](CCC(=O)O)NC(=O)[C@H](CCC(=O)O)NC(=O)[C@H](CCC(=O)O)NC(=O)[C@H](CCC(=O)O)NC(=O)CNC(=O)[C@H](CCC(=O)O)NC(=O)CNC(=O)[C@H](CCC(=O)O)NC(=O)[C@@H](Cc1ccccc1)NC(=O)[C@@H](Cc1ccccc1)NC(=O)Cc1ccc2ccccc2c1)C(=O)O	circular dichroism	PBS	500 µM, pH 9, above CMC, second peak	–	CD negative peak wavelength	212 nm
CC[C@H](C)[C@H](NC(=O)[C@H](CCCCN)NC(=O)CNC(=O)[C@H](CC(C)C)NC(=O)[C@H](Cc1ccccc1)NC(=O)[C@H](CCCCN)NC(=O)[C@H](CO)NC(=O)[C@H](Cc1ccccc1)NC(=O)[C@H](Cc1c[nH]c2ccccc12)NC(=O)[C@H](CCC(N)=O)NC(=O)[C@@H](NC(=O)[C@H](Cc1ccccc1)NC(=O)CCCCCNC(=O)CN1CCN(CC(=O)O)CCN(CC(=O)O)CCN(CC(=O)O)CC1)C(C)C)C(=O)N[C@@H](CCC(=O)O)C(=O)N1CCC[C@H]1C(=O)N[C@@H](CC(=O)O)C(=O)N[C@H](C(=O)N[C@@H](CO)C(=O)N[C@@H](CCC(N)=O)C(=O)N[C@H](C(=O)N[C@@H](CCC(N)=O)C(=O)N[C@@H](CC(=O)O)C(=O)N1CCC[C@H]1C(=O)N[C@@H](CC(N)=O)C(=O)N[C@@H](CC(=O)O)C(=O)N[C@@H](CCC(N)=O)C(=O)N[C@@H](Cc1ccc(O)cc1)C(=O)N[C@@H](CCC(=O)O)C(=O)N1CCC[C@H]1C(=O)N[C@@H](Cc1ccccc1)C(=O)O)C(C)C)C(C)C [copper-64 labelled]	–	C57BL/6 mice, male, tumour-free, liver	1 h	–	tissue uptake	20.4 ± 2.2 %ID/g
